Measured values gathered from unrelated publications.
Several values in a cell are separate wells, animals, samples, runs or records.
GSK3A: Glycogen synthase kinase-3 alpha (GSK3A, Homo sapiens, UniProt P49840)
UniProt Q16774, sequence (whole entry, looked up): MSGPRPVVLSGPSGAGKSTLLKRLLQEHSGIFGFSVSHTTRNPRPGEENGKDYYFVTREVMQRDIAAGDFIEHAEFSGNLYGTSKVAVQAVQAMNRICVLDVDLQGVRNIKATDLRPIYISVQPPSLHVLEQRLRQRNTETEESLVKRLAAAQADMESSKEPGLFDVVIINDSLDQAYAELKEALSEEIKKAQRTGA
UniProt P49840, sequence (whole entry, looked up): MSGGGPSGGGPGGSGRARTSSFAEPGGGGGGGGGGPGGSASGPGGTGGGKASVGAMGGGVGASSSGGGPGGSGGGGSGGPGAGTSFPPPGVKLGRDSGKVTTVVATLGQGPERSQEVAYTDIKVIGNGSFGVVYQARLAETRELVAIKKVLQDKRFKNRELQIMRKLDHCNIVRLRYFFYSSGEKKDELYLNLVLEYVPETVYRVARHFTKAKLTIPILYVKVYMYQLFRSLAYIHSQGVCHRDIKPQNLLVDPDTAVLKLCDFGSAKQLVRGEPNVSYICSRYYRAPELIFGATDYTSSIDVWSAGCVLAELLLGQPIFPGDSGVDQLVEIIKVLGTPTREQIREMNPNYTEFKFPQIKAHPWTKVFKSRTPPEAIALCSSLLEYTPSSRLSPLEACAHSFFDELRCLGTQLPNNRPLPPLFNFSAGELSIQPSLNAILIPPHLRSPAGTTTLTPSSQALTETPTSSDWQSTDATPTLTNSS
UniProt Q9Y2K6, sequence (whole entry, looked up): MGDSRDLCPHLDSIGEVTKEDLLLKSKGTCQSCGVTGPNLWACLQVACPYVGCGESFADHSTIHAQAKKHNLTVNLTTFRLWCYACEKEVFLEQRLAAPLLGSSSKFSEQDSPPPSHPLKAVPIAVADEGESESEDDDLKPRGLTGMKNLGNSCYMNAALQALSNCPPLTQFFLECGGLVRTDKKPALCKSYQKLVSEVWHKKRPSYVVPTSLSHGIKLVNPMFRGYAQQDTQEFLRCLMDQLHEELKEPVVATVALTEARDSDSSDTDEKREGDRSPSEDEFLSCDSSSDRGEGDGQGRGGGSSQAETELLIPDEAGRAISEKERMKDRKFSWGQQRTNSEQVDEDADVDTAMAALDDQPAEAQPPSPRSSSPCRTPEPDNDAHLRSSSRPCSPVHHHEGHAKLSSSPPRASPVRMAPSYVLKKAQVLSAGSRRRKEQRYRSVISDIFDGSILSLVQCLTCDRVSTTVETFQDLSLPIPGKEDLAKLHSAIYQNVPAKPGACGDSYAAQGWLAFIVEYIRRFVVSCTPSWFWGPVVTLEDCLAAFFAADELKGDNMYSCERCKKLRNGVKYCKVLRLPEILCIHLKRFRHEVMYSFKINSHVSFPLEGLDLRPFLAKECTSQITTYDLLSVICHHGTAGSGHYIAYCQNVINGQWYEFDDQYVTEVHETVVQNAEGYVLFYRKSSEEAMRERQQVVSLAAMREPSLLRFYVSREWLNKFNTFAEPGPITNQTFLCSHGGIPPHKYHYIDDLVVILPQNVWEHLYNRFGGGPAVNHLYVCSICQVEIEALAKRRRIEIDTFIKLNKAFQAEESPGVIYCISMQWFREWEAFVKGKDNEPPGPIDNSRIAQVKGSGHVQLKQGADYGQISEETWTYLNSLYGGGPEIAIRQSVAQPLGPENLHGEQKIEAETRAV
UniProt P11388, sequence (whole entry, looked up): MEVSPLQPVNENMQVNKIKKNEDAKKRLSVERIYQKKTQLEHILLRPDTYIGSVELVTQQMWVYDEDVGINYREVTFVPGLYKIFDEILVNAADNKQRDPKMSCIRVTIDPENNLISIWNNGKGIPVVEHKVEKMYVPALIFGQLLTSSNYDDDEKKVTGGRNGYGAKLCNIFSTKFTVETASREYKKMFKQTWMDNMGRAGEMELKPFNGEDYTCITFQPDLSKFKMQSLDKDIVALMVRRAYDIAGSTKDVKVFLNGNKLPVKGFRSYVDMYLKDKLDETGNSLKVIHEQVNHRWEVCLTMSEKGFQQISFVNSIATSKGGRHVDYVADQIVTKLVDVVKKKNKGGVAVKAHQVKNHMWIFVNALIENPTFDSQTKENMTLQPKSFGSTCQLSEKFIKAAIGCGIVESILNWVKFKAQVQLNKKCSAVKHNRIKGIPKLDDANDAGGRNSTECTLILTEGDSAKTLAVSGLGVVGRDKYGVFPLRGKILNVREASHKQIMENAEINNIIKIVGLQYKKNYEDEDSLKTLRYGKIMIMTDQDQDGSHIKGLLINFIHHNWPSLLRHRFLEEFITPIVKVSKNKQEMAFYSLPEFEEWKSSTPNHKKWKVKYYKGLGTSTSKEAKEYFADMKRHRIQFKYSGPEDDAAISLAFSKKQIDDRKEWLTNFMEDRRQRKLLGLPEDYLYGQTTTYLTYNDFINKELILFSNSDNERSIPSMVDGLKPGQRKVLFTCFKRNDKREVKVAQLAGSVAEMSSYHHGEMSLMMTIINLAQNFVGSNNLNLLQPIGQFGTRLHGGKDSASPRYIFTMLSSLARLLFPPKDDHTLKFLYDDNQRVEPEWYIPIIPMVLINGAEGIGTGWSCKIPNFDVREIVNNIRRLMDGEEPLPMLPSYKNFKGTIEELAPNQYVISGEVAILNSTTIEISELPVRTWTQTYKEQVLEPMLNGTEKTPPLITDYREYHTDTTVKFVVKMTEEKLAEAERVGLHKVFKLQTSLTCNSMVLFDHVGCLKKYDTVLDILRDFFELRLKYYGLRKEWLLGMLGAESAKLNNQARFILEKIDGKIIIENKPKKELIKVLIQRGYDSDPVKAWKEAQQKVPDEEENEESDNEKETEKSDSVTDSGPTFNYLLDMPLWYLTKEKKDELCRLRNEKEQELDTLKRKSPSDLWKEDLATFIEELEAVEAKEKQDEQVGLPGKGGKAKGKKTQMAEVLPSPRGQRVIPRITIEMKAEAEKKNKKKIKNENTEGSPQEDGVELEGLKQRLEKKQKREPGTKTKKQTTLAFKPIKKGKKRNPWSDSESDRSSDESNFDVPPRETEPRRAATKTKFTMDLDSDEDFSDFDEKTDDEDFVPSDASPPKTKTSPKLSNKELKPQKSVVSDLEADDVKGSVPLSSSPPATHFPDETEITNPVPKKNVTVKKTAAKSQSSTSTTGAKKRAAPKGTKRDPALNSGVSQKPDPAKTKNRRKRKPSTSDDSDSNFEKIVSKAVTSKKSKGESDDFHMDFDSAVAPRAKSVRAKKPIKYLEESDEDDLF
UniProt Q9Y6E0, sequence (whole entry, looked up): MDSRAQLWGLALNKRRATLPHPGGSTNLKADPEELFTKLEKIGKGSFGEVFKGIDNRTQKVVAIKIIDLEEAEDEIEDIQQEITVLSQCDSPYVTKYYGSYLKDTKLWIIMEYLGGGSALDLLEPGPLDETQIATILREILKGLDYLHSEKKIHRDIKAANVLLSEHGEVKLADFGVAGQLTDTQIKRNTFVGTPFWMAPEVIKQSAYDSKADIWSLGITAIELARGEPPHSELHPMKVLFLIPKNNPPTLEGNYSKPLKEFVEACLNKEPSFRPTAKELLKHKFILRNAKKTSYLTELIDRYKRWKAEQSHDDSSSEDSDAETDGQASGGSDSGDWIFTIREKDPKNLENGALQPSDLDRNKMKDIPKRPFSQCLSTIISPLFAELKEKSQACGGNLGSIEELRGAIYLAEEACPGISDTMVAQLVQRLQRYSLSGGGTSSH
UniProt P30043, sequence (whole entry, looked up): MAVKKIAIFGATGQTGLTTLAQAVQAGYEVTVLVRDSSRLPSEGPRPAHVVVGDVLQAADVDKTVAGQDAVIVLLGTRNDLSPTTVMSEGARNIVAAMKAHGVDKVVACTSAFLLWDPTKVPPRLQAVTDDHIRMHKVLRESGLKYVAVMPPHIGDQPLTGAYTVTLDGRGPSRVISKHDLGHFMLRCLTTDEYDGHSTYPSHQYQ
UniProt Q70CQ1, sequence (whole entry, looked up): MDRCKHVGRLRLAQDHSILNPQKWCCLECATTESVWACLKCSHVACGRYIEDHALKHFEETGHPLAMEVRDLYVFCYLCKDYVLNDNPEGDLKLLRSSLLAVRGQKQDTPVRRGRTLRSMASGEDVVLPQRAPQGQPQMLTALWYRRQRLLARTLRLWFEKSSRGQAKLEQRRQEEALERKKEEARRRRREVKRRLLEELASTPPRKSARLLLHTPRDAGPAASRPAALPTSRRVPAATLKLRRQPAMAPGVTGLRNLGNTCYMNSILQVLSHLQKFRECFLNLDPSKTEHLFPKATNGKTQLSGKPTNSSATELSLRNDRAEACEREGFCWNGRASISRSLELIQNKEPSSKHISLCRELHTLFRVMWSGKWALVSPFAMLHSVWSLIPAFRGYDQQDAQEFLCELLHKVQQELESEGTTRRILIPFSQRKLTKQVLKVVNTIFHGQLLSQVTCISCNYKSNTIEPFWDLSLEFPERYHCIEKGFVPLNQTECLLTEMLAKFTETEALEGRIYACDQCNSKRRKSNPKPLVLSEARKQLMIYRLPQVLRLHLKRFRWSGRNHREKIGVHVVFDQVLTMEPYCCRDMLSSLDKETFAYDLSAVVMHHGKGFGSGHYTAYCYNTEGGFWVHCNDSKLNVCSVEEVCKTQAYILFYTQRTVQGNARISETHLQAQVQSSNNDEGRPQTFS

Compound | target | test | test system | conditions | how to read | measurement | result
Nc1nc2c(ncn2[C@@H]2O[C@H](COP(=O)(O)O)[C@@H](O)[C@H]2O)c(=O)[nH]1 | GUK1 (Homo sapiens, UniProt Q16774) | enzyme activity, NADH-coupled |  | 2000 µM, together with: KCl 50 mM |  | reaction velocity | 0.107 µM/s and 0.112 µM/s and 0.105 µM/s
CC(=C/C(=O)O)/C=C/C=C(\C)C1C=C2C(C)(C)CCCC2(C)O1 (stereo not shown) | Rhodopsin (RHO, Homo sapiens, UniProt P08100, E181K) | ER retention, immunostaining co-localization, item: opsin with calnexin | COS-7 transfected E181K | 1.00 µM |  | Pearson correlation coefficient | 0.71
O=C(O)CCn1nnc(-c2ccccc2)n1 | Ubiquitin carboxyl-terminal hydrolase 20, ZnF-UBD domain (USP20, Homo sapiens, UniProt Q9Y2K6) |  |  |  |  | Kd | 677 µM
O=c1cc(-c2ccccc2)nc2cc(-c3ccco3)[nH]n12 | BLVRB (Homo sapiens, UniProt P30043) |  |  |  |  | kon | 19300 M⁻¹ s⁻¹
O=C(COP(=O)(O)O)[C@@H](O)[C@H](O)[C@H](O)COP(=O)(O)O | STK24 (Homo sapiens, UniProt Q9Y6E0) | thermal proteome profiling | HepG2 cell lysate | concentration not given, 57 over 37 °C, mean | baseline: compound over control | thermal stability ratio | 0.618
c1ccc2[nH]c(-c3cscn3)nc2c1 | GSK3A | kinase activity, inhibitor, Z'-LYTE |  |  |  | Hill slope | 1.05
C#Cc1cc(-c2cc(Nc3nc(N[C@@H](C)c4ccc(F)cn4)ncc3Cl)n[nH]2)ccc1C=O | KIT (Homo sapiens, UniProt P10721, V559D) | enzyme activity, inhibitor |  | 0.2 µM |  | inhibition | 6.82%
O=C(O)CCC(=O)c1ccc(S(=O)(=O)N2CCCC2)cc1 | Ubiquitin carboxyl-terminal hydrolase 49, ZnF-UBD domain (USP49, Homo sapiens, UniProt Q70CQ1) |  |  |  |  | Kd | > 1000 µM
CC[C@@H]1[C@H](F)C(=O)N[C@@H]1COc1nccc2cc(C(N)=O)c(OC)cc12 | GSK3A | ATP-site probe binding, ActivX profiling | THP-1 cell lysate | 0.04 mM, Lys2 site |  | inhibition | -6.7%
Cc1nc(CSc2nc(SCc3ccc(C(C)C)cc3)nc(=O)[nH]2)cs1 | TOP2A (Homo sapiens, UniProt P11388) | DNA relaxation |  | 125 µM |  | mean relaxed DNA | 18.7%
